Published values of several laboratories.
Each line is one published result; not all experiments were run side by side. ± gives the spread as reported.
ESR2: Estrogen receptor beta (ESR2, Homo sapiens, UniProt Q92731)
Sequence of UniProt Q92731 (whole entry, looked up): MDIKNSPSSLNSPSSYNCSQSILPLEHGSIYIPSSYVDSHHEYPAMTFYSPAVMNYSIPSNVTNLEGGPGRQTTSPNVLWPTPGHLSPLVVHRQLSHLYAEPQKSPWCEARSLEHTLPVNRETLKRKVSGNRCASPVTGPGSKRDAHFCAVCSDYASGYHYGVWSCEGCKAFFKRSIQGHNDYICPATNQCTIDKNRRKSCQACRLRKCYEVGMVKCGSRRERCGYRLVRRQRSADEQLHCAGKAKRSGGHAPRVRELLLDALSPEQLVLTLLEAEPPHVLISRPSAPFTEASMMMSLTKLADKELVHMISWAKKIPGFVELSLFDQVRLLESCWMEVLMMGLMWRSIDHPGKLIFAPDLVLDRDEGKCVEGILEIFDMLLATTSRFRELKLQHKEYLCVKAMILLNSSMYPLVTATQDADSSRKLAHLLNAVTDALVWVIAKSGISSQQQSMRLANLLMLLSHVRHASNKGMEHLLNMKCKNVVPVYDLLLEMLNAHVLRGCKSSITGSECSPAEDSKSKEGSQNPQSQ
AMY2: Pancreatic alpha-amylase (AMY2, Sus scrofa, UniProt P00690)
Sequence of UniProt P00690 (whole entry, looked up): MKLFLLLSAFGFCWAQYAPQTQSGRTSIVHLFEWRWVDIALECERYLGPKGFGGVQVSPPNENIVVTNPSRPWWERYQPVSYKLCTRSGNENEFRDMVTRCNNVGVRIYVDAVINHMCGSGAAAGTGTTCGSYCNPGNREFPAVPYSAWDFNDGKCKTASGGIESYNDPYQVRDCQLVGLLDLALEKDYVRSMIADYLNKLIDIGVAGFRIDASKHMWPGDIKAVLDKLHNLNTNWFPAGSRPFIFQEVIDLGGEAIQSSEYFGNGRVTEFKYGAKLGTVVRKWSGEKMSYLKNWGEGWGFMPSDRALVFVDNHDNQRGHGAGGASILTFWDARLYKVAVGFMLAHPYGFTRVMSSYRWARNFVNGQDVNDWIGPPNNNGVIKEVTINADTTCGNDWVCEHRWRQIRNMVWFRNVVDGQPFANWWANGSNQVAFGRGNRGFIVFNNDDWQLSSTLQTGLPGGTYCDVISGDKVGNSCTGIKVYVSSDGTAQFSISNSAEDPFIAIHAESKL
Sequence of UniProt P11474 (whole entry, looked up): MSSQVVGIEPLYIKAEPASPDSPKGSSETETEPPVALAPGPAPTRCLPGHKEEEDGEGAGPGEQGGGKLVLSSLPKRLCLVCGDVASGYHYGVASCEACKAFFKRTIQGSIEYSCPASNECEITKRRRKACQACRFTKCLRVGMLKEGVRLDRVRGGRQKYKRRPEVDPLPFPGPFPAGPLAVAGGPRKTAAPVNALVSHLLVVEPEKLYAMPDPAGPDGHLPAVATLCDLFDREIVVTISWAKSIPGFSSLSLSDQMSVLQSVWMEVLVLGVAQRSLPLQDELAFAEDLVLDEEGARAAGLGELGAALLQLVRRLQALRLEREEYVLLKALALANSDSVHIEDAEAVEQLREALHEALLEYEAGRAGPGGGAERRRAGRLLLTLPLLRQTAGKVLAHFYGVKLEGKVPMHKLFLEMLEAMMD
Sequence of UniProt P0A9P4 (whole entry, looked up): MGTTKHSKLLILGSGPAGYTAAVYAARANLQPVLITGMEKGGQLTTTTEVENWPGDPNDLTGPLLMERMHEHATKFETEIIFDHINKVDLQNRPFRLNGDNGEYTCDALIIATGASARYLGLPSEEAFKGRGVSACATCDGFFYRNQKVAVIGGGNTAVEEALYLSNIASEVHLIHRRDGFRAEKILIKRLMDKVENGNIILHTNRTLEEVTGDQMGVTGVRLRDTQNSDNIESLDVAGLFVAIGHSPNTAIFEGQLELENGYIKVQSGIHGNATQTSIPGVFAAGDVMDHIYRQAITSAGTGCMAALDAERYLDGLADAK
Sequence of UniProt O75355 (whole entry, looked up): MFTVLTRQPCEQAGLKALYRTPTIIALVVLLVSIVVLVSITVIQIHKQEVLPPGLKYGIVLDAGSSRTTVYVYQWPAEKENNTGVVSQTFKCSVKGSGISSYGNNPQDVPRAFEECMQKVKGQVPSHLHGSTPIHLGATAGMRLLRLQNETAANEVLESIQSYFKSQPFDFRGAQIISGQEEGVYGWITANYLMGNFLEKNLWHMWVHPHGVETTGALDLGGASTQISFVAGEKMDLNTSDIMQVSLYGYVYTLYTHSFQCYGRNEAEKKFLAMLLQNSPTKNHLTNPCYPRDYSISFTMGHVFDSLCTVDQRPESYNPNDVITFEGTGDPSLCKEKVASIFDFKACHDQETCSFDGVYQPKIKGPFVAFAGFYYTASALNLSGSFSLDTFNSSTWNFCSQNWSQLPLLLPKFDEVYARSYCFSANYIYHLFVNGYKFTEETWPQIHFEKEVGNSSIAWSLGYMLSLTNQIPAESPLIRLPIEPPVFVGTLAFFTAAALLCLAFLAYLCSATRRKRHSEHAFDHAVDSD
Sequence of UniProt Q13546 (whole entry, looked up): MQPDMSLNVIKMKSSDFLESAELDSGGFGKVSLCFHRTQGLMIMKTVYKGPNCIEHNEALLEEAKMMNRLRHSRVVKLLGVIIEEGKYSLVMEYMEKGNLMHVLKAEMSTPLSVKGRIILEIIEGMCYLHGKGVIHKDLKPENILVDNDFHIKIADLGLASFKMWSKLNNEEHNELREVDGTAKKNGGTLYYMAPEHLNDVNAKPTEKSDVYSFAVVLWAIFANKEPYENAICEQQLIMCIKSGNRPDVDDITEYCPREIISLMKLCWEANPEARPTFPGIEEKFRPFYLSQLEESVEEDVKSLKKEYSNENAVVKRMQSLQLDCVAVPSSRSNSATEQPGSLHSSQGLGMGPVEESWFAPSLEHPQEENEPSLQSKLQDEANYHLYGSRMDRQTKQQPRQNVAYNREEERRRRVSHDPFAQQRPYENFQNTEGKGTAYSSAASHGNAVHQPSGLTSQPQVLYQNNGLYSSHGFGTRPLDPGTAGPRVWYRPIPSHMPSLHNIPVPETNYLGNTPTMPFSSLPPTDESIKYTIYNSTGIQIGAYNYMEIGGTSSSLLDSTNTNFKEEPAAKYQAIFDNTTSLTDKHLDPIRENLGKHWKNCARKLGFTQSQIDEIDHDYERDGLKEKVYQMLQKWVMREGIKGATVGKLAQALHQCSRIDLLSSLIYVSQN
Sequence of UniProt P08842 (whole entry, looked up): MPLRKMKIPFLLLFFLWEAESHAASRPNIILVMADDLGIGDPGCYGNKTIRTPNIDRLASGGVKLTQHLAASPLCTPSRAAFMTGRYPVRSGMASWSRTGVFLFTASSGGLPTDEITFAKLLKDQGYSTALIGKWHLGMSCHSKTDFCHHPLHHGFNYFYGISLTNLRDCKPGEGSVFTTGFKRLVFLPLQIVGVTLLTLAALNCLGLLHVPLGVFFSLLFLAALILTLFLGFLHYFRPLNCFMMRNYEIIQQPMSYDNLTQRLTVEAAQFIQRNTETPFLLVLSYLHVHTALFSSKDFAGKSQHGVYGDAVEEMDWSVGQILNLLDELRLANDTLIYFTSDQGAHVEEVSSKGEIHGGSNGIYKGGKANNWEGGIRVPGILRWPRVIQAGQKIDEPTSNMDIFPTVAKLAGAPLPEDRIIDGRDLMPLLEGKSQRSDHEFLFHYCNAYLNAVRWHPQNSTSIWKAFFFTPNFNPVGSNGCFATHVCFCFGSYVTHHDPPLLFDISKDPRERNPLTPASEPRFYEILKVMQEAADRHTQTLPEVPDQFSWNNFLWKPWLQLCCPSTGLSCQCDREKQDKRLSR
Sequence of UniProt P52895 (whole entry, looked up): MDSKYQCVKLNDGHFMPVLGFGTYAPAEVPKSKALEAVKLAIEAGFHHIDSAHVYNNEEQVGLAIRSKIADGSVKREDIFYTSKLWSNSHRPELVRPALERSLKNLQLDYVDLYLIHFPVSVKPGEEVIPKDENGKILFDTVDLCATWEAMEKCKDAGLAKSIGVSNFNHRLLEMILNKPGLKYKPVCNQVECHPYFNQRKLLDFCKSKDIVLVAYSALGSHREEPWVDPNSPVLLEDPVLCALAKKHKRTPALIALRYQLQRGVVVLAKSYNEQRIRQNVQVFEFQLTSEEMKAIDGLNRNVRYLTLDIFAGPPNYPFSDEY
Sequence of UniProt P11802 (whole entry, looked up): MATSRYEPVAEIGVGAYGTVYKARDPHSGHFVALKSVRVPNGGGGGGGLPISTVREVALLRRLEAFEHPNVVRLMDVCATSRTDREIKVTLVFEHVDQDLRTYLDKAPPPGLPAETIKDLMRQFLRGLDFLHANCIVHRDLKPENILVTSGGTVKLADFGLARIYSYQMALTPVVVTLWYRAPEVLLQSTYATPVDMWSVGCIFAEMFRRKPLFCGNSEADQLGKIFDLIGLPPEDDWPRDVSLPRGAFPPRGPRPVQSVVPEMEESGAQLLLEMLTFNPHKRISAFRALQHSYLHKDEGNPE
Sequence of UniProt P20309 (whole entry, looked up): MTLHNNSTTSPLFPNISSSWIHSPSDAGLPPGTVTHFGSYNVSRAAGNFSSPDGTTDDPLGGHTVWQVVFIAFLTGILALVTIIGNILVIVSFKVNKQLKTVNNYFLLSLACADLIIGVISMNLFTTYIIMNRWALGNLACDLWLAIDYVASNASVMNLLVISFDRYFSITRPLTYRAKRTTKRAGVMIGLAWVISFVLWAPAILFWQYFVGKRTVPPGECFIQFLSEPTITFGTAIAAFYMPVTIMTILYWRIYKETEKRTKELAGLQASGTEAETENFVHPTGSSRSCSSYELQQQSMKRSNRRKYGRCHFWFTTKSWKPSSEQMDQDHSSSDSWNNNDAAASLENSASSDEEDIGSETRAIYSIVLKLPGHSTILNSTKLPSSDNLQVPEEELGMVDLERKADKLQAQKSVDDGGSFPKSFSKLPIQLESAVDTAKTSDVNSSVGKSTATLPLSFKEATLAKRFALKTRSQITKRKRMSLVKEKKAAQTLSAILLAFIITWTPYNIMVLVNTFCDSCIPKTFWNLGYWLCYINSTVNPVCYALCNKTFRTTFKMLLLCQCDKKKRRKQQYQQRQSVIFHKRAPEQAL
Sequence of UniProt P24666 (whole entry, looked up): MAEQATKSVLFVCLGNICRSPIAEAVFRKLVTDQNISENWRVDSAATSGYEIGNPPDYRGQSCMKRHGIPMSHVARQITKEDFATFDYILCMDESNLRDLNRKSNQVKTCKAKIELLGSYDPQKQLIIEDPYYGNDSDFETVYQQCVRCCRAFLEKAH

Compound | target | test | system | conditions | IC50
Cc1nn(-c2cccc(N)c2)c(=O)c2cnc(Nc3ccc(N4CCNCC4)cc3)nc12 | Protein lin-28 homolog A (Mus musculus, UniProt Q8K3Y3) | RNA binding, inhibitor | – | with: pre-let-7d | 7400 nM
O=C(NC1CC1)N1CCC=C(c2cc3c(Nc4cc5ncsc5cc4F)ncnc3s2)C1 | RIPK2 (Homo sapiens, UniProt O43353) | enzyme activity, inhibitor | – | – | 11 nM
CC1=C2C(=O)C3CC[C@@H](C)C2(CC1)C3(C)C (stereo partly drawn) | α-glucosidase (Saccharomyces cerevisiae) | inhibitor | – | with: pNPG | > 10 µg/mL
O=S(=O)(Oc1cccc(F)c1)C1CC2OC1C(c1ccc(O)cc1)=C2c1ccc(O)cc1 (racemic) | ESR2 | reporter gene, antagonist, luciferase | – | – | 453 nM
CCn1[c]([Au-]([Cl])([Cl])[Cl])[n+](CC)c2ccc(C(=O)OC)cc21 | trxB (Escherichia coli, UniProt P0A9P4) | enzyme activity, inhibitor, absorbance | – | with preincubation | 252 nM
CC(/C=C/C(=O)NO)=C\[C@@H](C)C(=O)c1ccc(N(C)C)cc1 | ACP1 (Homo sapiens, UniProt P24666) | enzyme activity, inhibitor, fluorescence | – | – | > 100000 nM
C#CC(=O)Nc1ccc2nc(NCCCCCN(C)C)nc(NCCCCCCN(C)C)c2c1 | Histone-lysine N-methyltransferase SETDB1, triple Tudor domain (SETDB1, Homo sapiens, UniProt Q15047) | binding, inhibitor | – | – | 660 ± 260 nM
N#Cc1ccc(N(Cc2ccc(OS(N)(=O)=O)cc2Br)n2cnnc2)cc1 | Steryl-sulfatase (STS, Homo sapiens, UniProt P08842) | enzyme activity, inhibitor | JEG-3 intact monolayers | – | 10 to 100 nM
NCCCOP(=O)(O)OCC1OC(n2cnc3c(=O)[nH]c(N)nc32)CC1O (stereo not drawn) | SAMHD1 (Homo sapiens, UniProt Q9Y3Z3) | enzyme activity, inhibitor, absorbance | – | – | 140000 nM
CNC(=O)c1ccccc1Oc1nc(Nc2cc(OC)c(OC)c(OC)c2)ncc1Br | PRKAA1 (Homo sapiens, UniProt Q13131) | inhibitor | – | with: ATP 20 µM | 170 nM
N/C(=N\O)c1ccc2c(c1)Oc1ccccc1N2Cc1ccc(C(=O)NO)cc1 | HDAC7 (Homo sapiens, UniProt Q8WUI4) | enzyme activity, inhibitor | – | – | 370 nM
COc1cc(O)ccc1CCC(c1ccc(O)cc1)c1cc2c(c(C)c1O)OC(c1ccc(O)cc1)CC2 (mixture of isomers) | ALOX5 (Homo sapiens, UniProt P09917) | enzyme activity, inhibitor | – | – | 500 nM
CCNC(=O)[C@H]1O[C@@H](n2cnc3c(NCCOCCOCCNC(=O)CCCCCNC(=O)COc4ccc(/C=C/C5=[N+]6C(=Cc7ccc(-c8cccs8)n7[B-]6(F)F)C=C5)cc4)ncnc32)[C@H](O)[C@@H]1O | ADORA1 (Homo sapiens, UniProt P30542) | CRE reporter gene, agonist | CHO-A1 | Gi-mediated inhibition, with: forskolin | 63.1 nM
COc1cc2oc3cc(O)c(OC)c(CC=C(C)C)c3c(=O)c2c(O)c1CC=C(C)C | α-glucosidase Saccharomyces cerevisiae | – | – | with: p-nitrophenyl glucoside | 15000 nM
CC[C@H](C)[C@@H]1NC(=O)[C@H](Cc2c[nH]c3ccccc23)NC(=O)CNC(=O)c2cc3cc(c2)C(=O)NC[C@@H](C(=O)NCCC(=O)NCCC(=O)N[C@@H](CCCCN)C(N)=O)NC(=O)[C@H](CCCNC(=N)N)NC(=O)[C@@H](CCCNC(=N)N)NC(=O)[C@H](CCCNC(=N)N)NC(=O)[C@H](Cc2ccc4ccccc4c2)NC(=O)[C@H](C)NC(=O)[C@H](CNC3=O)NC(=O)[C@H](C)NC(=O)[C@H](Cc2ccc(O)cc2)NC1=O | NF-kappa-B essential modulator, with IKK-beta (IKBKG, Homo sapiens, UniProt Q9Y6K9) | inhibitor, HTRF | – | – | 1900 ± 200 nM
O=C(Nc1ccc(Cl)cc1)c1cccc(S(=O)(=O)NC2CC2)c1 | Ectonucleoside triphosphate diphosphohydrolase 3 (Homo sapiens, UniProt O75355) | enzyme activity, inhibitor, absorbance | – | – | 1330 nM
C[C@]12CC[C@@H]3c4cc(Br)c(O)c(Br)c4CC[C@H]3[C@@H]1CCC2=O | AKR1C2 (Homo sapiens, UniProt P52895) | enzyme activity, inhibitor, absorbance | – | pH 9 | 5600 nM

Compound | target | test | system | conditions | IC50
CNC(=O)c1cc(C)ccc1NC(=O)c1ccc(-c2cc(O)ccc2C)c(C)c1 | FGR (Homo sapiens, UniProt P09769) | target engagement in cells, BRET | – | – | 45600 nM
C/C(=N\N(c1ccccc1)c1ccccc1)c1ccc(O)cc1 | ESR2 | coactivator recruitment, antagonist | – | – | 3520 nM
CC(=O)C1=C(C)NC(=O)NC1c1ccc(Br)cc1 (stereo not drawn) | AMY2 | enzyme activity, inhibitor | – | – | 149000 nM
Cn1c(=O)n(CCCO)c(=O)c2c1nc(Oc1cccc(C3(C(F)(F)F)N=N3)c1)n2Cc1ccc(Cl)cc1 | TRPC1/TRPC5 (TRPC1/TRPC5, Homo sapiens, UniProt P48995+Q9UL62) | calcium influx, inhibitor, Fura-2 | HEK T-REx expressing TRPC1/TRPC5 | with: englerin A 30 nM | 4.9 nM
CN(C(=O)c1ccn2ncc(-c3ccc(C(N)=O)cc3)c2c1)c1ccc(C#N)cn1 | Cyclin-dependent kinase 4, with cyclin D1 (CDK4, Homo sapiens, UniProt P11802) | inhibitor | – | – | > 10000 nM
O=C1NC(Cc2c[nH]c3c(Cl)cccc23)C(=O)N1Cc1ccccc1 (racemic) | RIPK1 (Homo sapiens, UniProt Q13546) | binding, inhibitor, fluorescence polarization | – | GST-RIP1 2.6 µM, 3% DMSO, with: fluorescein-Nec-1 50 nM | 8500 ± 1200 nM
Oc1cc(O)c2c(c1)O[C@H](c1ccc(O)c(O)c1)[C@H](O)[C@H]2c1c(O)cc(O)c2c1O[C@H](c1ccc(O)c(O)c1)[C@H](O)[C@H]2c1c(O)cc(O)c2c1O[C@H](c1ccc(O)c(O)c1)[C@H](O)[C@H]2c1c(O)cc(O)c2c1O[C@H](c1ccc(O)c(O)c1)[C@H](O)C2 | alpha-glucosidase (Bacillus stearothermophilus) | inhibitor | – | 20 min, pH 6.8, 60 °C, with: pNPG substrate | 1700 ± 100 nM
O=C(/C=C/c1ccc(Cl)cc1Cl)NO | hdac10 (Danio rerio, UniProt F1QCV2) | – | – | – | 112 ± 19 nM
COc1cc2c(cc1OC)C(c1cccs1)N(C(=O)CC1OC(=O)c3ccccc31)CC2 (stereo not drawn) | gyrB (Escherichia coli, UniProt P0AES6) | enzyme activity, inhibitor | – | – | 17600 ± 400 nM
COc1ccc(Oc2ccccc2N(CCO)S(=O)(=O)c2ccc(N)cc2)cc1 | ESRRA (Homo sapiens, UniProt P11474) | transcriptional activity, inhibitor, mammalian two-hybrid reporter | HEK293T | 48 h, GAL4-LBD fusion | 1290 nM
CCCCCCCCCCCCCCCC(OC(=O)[C@H](CCCCN(O)C=O)NC(=O)[C@H]1N=C(c2ccccc2O)O[C@@H]1C)C(C)C(=O)N[C@@H]1CCCCN(O)C1=O (stereo partly drawn) | CHRM3 (Homo sapiens, UniProt P20309) | calcium signal, antagonist, fluorescence | – | – | 1150 nM
O=c1cc(-c2ccc(O)c(O)c2)oc2cc(O[C@@H]3O[C@H](CO)[C@@H](O)[C@H](O)[C@H]3O)cc(O)c12 | AMY2 | enzyme activity, inhibitor | – | – | 405000 nM
COc1ccc(/C=C/C(=O)CC(=O)CCc2cc(OC)c(OC)c(OC)c2)cc1 | PNLIP (Sus scrofa, UniProt P00591) | enzyme activity, inhibitor, absorbance | – | – | 164000 nM
Cc1ccc2oc(-c3c4c(N)n[nH]c(=O)c4nn3-c3ccc(NC(=O)/C=C/CN(C)C)cc3)c(C)c2c1 | DDR2 (Homo sapiens, UniProt Q16832) | enzyme activity, inhibitor, ELISA | – | – | > 1000 nM
Clc1ccc(-c2cs/c(=N/N=C/c3ccc(N4CCOCC4)cc3)n2-c2ccccc2)cc1 | CA2 (Bos taurus, UniProt P00921) | enzyme activity, inhibitor, absorbance | – | – | 31500 nM
CCOC(=O)CNC(=O)CN1C(=O)S/C(=C\c2ccc(OC)c(O)c2)C1=O | α-amylase | enzyme activity, DNSA colorimetric | – | – | > 100000 nM

Some of these lines once more:
Compound | target | test | system | conditions | IC50
CNC(=O)c1cc(C)ccc1NC(=O)c1ccc(-c2cc(O)ccc2C)c(C)c1 | FGR (Homo sapiens, UniProt P09769) | target engagement in cells, BRET | – | – | 45600 nM
O=C1NC(Cc2c[nH]c3c(Cl)cccc23)C(=O)N1Cc1ccccc1 (racemic) | RIPK1 (Homo sapiens, UniProt Q13546) | binding, inhibitor, fluorescence polarization | – | GST-RIP1 2.6 µM, 3% DMSO, with: fluorescein-Nec-1 50 nM | 8500 ± 1200 nM
Cc1ccc2oc(-c3c4c(N)n[nH]c(=O)c4nn3-c3ccc(NC(=O)/C=C/CN(C)C)cc3)c(C)c2c1 | DDR2 (Homo sapiens, UniProt Q16832) | enzyme activity, inhibitor, ELISA | – | – | > 1000 nM
CC(/C=C/C(=O)NO)=C\[C@@H](C)C(=O)c1ccc(N(C)C)cc1 | ACP1 (Homo sapiens, UniProt P24666) | enzyme activity, inhibitor, fluorescence | – | – | > 100000 nM
